Results gathered from unrelated publications.
UniProt Q9H1Y3, sequence (whole entry, looked up): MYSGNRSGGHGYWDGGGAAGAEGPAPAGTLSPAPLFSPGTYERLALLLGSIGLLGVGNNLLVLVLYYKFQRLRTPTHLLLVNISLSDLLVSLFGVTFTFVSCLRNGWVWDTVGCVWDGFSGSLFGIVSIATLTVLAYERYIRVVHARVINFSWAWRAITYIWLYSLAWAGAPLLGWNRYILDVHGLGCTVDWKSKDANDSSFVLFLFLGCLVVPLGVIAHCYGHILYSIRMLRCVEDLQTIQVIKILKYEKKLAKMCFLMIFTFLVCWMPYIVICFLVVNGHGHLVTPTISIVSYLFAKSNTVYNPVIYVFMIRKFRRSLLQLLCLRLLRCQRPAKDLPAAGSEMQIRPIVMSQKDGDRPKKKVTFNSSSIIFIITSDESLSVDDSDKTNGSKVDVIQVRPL
UniProt Q99500, sequence (whole entry, looked up): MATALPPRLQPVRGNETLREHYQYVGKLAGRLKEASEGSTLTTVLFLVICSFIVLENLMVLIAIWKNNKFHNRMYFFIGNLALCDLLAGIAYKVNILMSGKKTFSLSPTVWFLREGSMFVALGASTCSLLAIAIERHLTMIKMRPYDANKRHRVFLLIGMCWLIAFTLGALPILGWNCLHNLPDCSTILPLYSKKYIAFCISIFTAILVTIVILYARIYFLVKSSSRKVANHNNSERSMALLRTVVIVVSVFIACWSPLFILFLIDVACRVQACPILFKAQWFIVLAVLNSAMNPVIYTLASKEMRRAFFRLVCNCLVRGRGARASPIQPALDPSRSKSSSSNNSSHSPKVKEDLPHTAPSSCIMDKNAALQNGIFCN
UniProt Q96P69, sequence (whole entry, looked up): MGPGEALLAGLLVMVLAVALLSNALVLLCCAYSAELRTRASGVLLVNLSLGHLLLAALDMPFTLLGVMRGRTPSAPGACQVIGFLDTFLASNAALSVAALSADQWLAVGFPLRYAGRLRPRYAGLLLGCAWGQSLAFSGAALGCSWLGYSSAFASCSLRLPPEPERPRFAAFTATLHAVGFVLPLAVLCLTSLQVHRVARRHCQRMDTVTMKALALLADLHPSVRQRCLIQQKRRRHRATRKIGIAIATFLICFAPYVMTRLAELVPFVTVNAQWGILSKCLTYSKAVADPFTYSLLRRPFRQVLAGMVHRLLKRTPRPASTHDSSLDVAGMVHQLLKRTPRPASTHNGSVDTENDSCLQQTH
UniProt O95747, sequence (whole entry, looked up): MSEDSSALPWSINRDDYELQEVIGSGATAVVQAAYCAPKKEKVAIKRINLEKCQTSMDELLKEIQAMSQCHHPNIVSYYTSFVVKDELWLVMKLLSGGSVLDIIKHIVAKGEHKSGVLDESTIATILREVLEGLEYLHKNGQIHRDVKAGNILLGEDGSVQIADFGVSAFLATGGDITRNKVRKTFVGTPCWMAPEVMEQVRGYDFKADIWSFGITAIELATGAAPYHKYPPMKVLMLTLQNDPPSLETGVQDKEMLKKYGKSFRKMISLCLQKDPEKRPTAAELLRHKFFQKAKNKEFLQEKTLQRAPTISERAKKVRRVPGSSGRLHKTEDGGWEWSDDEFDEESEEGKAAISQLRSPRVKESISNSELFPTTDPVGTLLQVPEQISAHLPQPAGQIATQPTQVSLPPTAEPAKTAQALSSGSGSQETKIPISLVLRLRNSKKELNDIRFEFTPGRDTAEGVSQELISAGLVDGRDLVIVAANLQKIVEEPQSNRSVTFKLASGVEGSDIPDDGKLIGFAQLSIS
UniProt P42785, sequence (whole entry, looked up): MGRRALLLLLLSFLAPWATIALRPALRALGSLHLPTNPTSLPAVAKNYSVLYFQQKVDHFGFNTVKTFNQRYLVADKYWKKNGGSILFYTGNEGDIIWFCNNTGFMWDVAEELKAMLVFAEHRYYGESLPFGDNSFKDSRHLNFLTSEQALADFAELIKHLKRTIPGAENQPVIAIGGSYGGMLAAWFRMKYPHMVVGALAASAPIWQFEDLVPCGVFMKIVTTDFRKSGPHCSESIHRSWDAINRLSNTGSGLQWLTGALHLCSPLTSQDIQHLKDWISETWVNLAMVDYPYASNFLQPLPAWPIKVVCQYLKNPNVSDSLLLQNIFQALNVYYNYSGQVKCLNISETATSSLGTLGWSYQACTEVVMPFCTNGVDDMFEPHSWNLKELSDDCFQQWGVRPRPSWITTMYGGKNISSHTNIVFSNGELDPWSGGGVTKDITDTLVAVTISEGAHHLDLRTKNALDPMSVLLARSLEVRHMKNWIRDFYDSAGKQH
UniProt Q16531, sequence (whole entry, looked up): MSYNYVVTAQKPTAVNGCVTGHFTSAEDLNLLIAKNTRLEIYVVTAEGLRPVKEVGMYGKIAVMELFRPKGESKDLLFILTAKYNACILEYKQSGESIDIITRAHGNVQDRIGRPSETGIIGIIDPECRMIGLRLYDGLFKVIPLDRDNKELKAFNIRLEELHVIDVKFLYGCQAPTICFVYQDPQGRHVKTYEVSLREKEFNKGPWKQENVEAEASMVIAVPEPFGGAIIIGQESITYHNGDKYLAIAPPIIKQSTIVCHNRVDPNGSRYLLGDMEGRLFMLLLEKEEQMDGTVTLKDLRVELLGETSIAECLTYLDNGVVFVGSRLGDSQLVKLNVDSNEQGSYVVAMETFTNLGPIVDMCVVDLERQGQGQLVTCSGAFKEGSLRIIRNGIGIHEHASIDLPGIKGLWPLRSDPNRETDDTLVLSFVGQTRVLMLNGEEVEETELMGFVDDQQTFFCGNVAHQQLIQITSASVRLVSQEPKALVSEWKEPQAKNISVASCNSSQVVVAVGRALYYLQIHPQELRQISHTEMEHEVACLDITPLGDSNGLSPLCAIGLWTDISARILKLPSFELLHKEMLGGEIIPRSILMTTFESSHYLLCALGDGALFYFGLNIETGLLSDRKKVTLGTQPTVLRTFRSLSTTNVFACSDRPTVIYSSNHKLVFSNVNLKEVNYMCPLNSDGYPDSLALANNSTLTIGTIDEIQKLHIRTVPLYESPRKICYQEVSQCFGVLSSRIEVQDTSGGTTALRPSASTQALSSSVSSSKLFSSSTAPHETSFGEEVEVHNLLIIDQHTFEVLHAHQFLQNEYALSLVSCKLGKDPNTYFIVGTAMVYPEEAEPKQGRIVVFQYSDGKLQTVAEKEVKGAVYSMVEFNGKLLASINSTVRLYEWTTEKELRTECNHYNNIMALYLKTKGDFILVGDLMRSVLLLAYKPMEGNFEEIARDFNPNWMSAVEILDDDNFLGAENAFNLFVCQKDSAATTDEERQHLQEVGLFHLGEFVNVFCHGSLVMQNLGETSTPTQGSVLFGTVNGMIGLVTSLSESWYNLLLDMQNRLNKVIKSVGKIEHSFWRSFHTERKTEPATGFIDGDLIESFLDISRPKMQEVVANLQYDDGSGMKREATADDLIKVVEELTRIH
UniProt Q9NQU5, sequence (whole entry, looked up): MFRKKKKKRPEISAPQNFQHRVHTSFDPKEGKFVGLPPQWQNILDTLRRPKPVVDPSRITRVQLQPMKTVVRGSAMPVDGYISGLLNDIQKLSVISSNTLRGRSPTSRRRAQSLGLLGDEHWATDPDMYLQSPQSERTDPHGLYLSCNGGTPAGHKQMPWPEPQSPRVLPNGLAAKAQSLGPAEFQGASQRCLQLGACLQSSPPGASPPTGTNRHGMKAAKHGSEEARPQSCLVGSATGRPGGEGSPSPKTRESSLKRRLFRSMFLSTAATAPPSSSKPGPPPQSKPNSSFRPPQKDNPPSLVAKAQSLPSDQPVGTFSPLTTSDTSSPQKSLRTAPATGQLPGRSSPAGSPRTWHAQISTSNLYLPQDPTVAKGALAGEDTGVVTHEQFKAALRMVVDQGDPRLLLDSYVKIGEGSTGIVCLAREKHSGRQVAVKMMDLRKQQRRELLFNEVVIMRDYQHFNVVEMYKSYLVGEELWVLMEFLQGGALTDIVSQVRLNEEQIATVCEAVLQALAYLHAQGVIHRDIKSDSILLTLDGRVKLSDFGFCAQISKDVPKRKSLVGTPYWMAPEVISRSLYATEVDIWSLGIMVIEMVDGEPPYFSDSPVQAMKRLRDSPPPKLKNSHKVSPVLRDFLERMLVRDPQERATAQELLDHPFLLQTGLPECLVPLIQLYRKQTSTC

SMILES | target | assay | test system | setting | scale | endpoint | value
C[C@H]1CN(c2n[nH]c3nc(N[C@H]4CC[C@H](NS(=O)(=O)CCC(F)(F)F)CC4)ncc23)CCO1 | DNA damage-binding protein 1 (DDB1, Homo sapiens, UniProt Q16531) | inhibitor, Kinobeads competition profiling | – | 20 µM | baseline: vehicle | relative abundance | 1.21
[2H]c1c([2H])c([C@]2([2H])CCCN2C(=O)C(C)(C)Oc2ccc3cn[nH]c3c2)c([2H])c([2H])c1C([2H])([2H])[2H] | Serine/threonine-protein kinase OSR1 (OXSR1, Homo sapiens, UniProt O95747) | KINOMEscan | – | 1 µM | baseline: DMSO control | remaining binding | 100%
COc1ccc(N2C(=O)N(c3c(C)cccc3Cl)Cc3cnc(Nc4ccc(C5CCN(C)CC5)cc4OC)nc32)nc1 | Serine/threonine-protein kinase PAK 6 (PAK6, Homo sapiens, UniProt Q9NQU5) | kinase activity | – | 0.5 µM | – | inhibition | 3.29%
CN1CCN(c2cc(-c3ccncc3)c(-c3ccc4ccccc4c3)nn2)CC1 | Sphingosine 1-phosphate receptor 3 (S1PR3, Homo sapiens, UniProt Q99500) | antagonist, FLIPR | – | 10 µM | – | inhibition | 8.6%
Oc1ccc2c3c1O[C@H]1[C@@H](O)CC[C@@]4(O)[C@@H](C2)N(CC2CCC2)CC[C@]314 | G-protein coupled receptor 78 (GPR78, Homo sapiens, UniProt Q96P69) | β-arrestin recruitment, TANGO luminescence, refers to: GPR78 | – | concentration not given | baseline: basal luminescence | log2 fold change | 0.225
CNC1(c2ccccc2Cl)CCCCC1=O (racemic) | AMPA receptor | radioligand binding, agonist, radioligand displacement | – | 30 µM | – | inhibition | 2%
COc1cc(N)c(Cl)cc1C(=O)NC1CN2CCC1CC2 (centres unmarked) | Opsin-3 (OPN3, Homo sapiens, UniProt Q9H1Y3) | β-arrestin recruitment, TANGO luminescence, refers to: OPN3 | – | concentration not given | baseline: basal luminescence | log2 fold change | 0.628
O=C(c1ccc(Cl)cc1)N1CCN2C(=O)N(OC(=O)N3CCOc4ccccc43)C(=O)C2C1 (centres unmarked) | Lysosomal Pro-X carboxypeptidase (PRCP, Homo sapiens, UniProt P42785) | enzyme activity, inhibitor, MS-based ABPP | SW-620 conditioned medium | 10 µM, 1 h, 37 °C | baseline: compound over DMSO, lower = stronger inhibition | median ratio | 1.13

For quick reference, copied from above:
SMILES | target | assay | test system | setting | scale | endpoint | value
COc1ccc(N2C(=O)N(c3c(C)cccc3Cl)Cc3cnc(Nc4ccc(C5CCN(C)CC5)cc4OC)nc32)nc1 | Serine/threonine-protein kinase PAK 6 (PAK6, Homo sapiens, UniProt Q9NQU5) | kinase activity | – | 0.5 µM | – | inhibition | 3.29%
